Measurements from different studies.
Numbered parts are unrelated; each lists some results of a single study.
UniProt P25098, sequence (whole entry, looked up): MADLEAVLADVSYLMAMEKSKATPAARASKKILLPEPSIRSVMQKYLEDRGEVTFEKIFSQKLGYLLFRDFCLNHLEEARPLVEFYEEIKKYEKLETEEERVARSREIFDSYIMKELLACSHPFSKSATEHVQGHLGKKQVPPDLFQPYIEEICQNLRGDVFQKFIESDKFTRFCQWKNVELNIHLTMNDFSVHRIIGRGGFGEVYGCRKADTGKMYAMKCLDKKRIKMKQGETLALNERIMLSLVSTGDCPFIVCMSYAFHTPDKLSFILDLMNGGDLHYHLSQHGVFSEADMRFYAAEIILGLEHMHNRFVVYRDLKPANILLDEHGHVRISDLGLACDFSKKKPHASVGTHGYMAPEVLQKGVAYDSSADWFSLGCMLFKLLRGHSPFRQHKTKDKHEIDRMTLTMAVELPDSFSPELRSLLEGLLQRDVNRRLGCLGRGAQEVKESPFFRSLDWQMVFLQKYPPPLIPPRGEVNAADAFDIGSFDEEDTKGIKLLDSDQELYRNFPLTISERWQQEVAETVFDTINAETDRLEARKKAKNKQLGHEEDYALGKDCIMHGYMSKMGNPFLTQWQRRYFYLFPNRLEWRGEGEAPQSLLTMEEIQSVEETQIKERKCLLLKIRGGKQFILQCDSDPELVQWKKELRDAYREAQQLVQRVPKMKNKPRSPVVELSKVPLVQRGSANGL
UniProt P23443, sequence (whole entry, looked up): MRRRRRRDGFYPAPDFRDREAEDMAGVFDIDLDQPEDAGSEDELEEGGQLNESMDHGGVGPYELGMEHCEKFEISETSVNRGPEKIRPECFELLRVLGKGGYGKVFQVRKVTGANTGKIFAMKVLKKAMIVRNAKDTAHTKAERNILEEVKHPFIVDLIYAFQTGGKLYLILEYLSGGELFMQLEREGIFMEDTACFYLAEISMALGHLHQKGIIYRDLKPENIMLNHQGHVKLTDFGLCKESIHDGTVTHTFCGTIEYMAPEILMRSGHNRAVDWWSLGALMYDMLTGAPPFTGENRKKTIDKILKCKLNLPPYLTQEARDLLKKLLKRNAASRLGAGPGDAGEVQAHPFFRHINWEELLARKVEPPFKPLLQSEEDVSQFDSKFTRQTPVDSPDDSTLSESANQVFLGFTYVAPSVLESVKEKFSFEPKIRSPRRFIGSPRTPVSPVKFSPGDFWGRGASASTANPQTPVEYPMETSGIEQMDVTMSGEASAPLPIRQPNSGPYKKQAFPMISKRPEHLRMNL
UniProt P60842, sequence (whole entry, looked up): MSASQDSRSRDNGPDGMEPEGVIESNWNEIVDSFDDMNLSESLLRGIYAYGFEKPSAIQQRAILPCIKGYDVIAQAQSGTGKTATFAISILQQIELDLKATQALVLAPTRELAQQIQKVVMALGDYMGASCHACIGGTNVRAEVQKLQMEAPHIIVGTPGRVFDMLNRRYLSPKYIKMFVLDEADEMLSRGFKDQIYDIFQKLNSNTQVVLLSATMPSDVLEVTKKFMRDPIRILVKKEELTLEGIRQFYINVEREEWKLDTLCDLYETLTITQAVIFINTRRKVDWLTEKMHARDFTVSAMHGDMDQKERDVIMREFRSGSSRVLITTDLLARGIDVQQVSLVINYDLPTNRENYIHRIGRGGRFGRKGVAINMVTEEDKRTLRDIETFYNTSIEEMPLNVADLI

Series 1
Structure (SMILES): COC[C@H]1OC(=O)c2coc3c2[C@@]1(C)C1=C(C3=O)[C@@H]2CCC(=O)[C@@]2(C)C[C@H]1OC(C)=O
Read-out: enzyme activity
Action: inhibitor
Concentration: 0.5 µM
Baseline: control
target	remaining activity
GRK2 (Homo sapiens, UniProt P25098)	98.3%
RPS6KB1 (Homo sapiens, UniProt P23443)	89%
FLT3 (Homo sapiens, UniProt P36888)	93.4%

Series 2
Cell line: Huh-7
Concentration: 10 µM
Time: 24 h
Compound	viability [%]
NC(=O)CN1CCCC1=O	101
COC(=O)C1=CCCN(C)C1	102
C[C@@H](CO)NC(=O)[C@@H]1C=C2c3cccc4[nH]cc(c34)C[C@H]2N(C)C1	97.6

Single results of other studies
SMILES	target or system	assay	test system	setting	how to read	quantity	result
CC(C)=CCN1CCCC(C(=O)c2nccn2C)C1 (stereo not drawn)	–	–	human, microsomes or S9	2 µM, 0.5 h	–	remaining compound	84.9%
COC(=O)[C@H]1[C@H](c2ccccc2)[C@]2(c3ccc(OC)cc3)Oc3cc(OC)cc(OC)c3[C@@]1(O)C2O (stereo partly drawn)	EIF4A1 (Homo sapiens, UniProt P60842)	RNA clamping, fluorescence polarization	–	concentration not given, together with: FAM-labelled poly r(AG)8 RNA	higher = more clamping	fluorescence polarization change	0.1 mP
O=S(=O)(CC1C(c2ccccc2)N1c1ccccc1)c1ccccc1 (stereo not drawn)	–	–	human, microsomes or S9	2 µM, 0.5 h	–	remaining compound	7.64%

Excerpt of the above (series 1):
target	remaining activity
RPS6KB1 (Homo sapiens, UniProt P23443)	89%
